Published values pooled from the literature.
Lines come from different studies, so protocols differ. ± gives the spread as reported.

C[C@H]1O[C@@H](O[C@H]2[C@@H](O)C[C@H](O[C@H]3[C@@H](O)C[C@H](O[C@H]4CC[C@@]5(C)[C@H](CC[C@@H]6[C@@H]5C[C@@H](O)[C@]5(C)[C@@H](C7=CC(=O)OC7)CC[C@]65O)C4)O[C@@H]3C)O[C@@H]2C)C[C@H](O)[C@@H]1O
Ctrough (human, plasma; 0.375 mg, alone, geometric mean): 0.683 ng/mL

Cl.[2H]C([2H])([2H])CC(=O)c1cnc(NC(=O)C2CC2)cc1Nc1cccc(-c2ncn(C([2H])([2H])[2H])n2)c1OC
Ctrough (human, fasted, multiple dose; oral, 10 mg once daily, liquid formulation, day 7, geometric mean): 10.9 ng/mL

NCCONC(=O)[C@@H]1CC[C@@H]2CN1C(=O)N2OS(=O)(=O)O
Ctrough (human, plasma; intravenous infusion, 1 g, days 7 to 9, multiple dosing, range of means): 2850 to 2930 ng/mL

Cn1ncnc1[C@H]1c2n[nH]c(=O)c3cc(F)cc(c23)N[C@@H]1c1ccc(F)cc1
Ctrough (human patients, plasma; oral, 600 µg/m2/day, day 5): 3.9 ± 2.5 ng/mL

COc1cc(-c2cnc3cc(OCCN4CCOCC4)ccn23)cc2c1C(=O)N(CC(F)(F)F)CC2
Ctrough (LC-MS; human, plasma; oral, 350 mg once daily, day 6, co-dosed with methotrexate; arithmetic mean): 52.2 ng/mL

COC(=O)N[C@H](C(=O)N1CCC[C@H]1c1ncc(-c2cc(F)c3c(c2)O[C@@H](c2cnc(C4CC4)s2)n2c-3cc3cc(-c4cnc([C@@H]5CCCN5C(=O)[C@@H](NC(=O)OC)C(C)C)[nH]4)ccc32)[nH]1)C(C)C
Ctrough increase (healthy adult humans; oral, dose not given; reference: moderate-fat meal over fasted): ~88%

CC(=O)c1c(C)c2cnc(Nc3ccc(N4CCNCC4)cn3)nc2n(C2CCCC2)c1=O
Ctrough (LC-MS/MS; human, plasma; oral, 125 mg, cycle 1 day 15, together with: neratinib 240 mg): 163 ng/mL

Cc1cc(Nc2cc3ncccc3c(N[C@@H]3C[C@H]4CC[C@@H](C3)N4CCC#N)n2)n[nH]1
Ctrough (human; 80 mg, day 14, geometric mean): 0.0814 ng/mL

Excerpt of the above:
Cc1cc(Nc2cc3ncccc3c(N[C@@H]3C[C@H]4CC[C@@H](C3)N4CCC#N)n2)n[nH]1
Ctrough (human; 80 mg, day 14, geometric mean): 0.0814 ng/mL
